Assay results gathered from unrelated publications.
Values joined by “and” are separate records of one study, mostly repeats; a detail may differ. ± marks the error that the study gave.
U2AF2: U2AF2 148-342 (Homo sapiens, UniProt P26368)
UniProt P26368, sequence (whole entry, looked up): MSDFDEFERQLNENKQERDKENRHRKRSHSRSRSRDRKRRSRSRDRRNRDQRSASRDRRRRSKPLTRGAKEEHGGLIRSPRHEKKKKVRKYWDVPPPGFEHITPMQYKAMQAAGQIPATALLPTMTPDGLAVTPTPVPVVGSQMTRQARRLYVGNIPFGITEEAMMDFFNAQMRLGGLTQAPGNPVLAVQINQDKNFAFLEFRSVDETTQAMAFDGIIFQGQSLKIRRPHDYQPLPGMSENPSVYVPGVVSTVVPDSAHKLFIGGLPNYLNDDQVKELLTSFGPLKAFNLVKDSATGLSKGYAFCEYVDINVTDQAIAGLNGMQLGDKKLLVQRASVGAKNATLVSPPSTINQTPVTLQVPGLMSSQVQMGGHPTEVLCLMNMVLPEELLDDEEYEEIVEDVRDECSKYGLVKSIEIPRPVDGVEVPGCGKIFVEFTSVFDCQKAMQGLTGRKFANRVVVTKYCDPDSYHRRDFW
B1: human AHCYL1; sequence looked up; chain SMPDAMPLPGVGEELKQAKEIEDAEKYSFMATVTKAPKKQIQFADDMQEFTKFPTKTGRRSLSRSISQSSTDSYSSAASYTDSSDDEVSPREKQQTNSKGSSNFCVKNIKQAEFGRREIEIAEQDMSALISLRKRAQGEKPLAGAKIVGCTHITAQTAVLIETLCALGAQCRWSACNIYSTQNEVAAALAEAGVAVFAWKGESEDDFWWCIDRCVNMDGWQANMILDDGGDLTHWVYKKYPNVFKKIRGIVEESVTGVHRLYQLSKAGKLCVPAMNVNDSVTKQKFDNLYCCRESILDGLKRTTDVMFGGKQVVVCGYGEVGKGCCAALKALGAIVYITEIDPICALQACMDGFRVVKLNEVIRQVDVVITCTGNKNVVTREHLDRMKNSCIVCNMGHSNTEIDVTSLRTPELTWERVRSQVDHVIWPDGKRVVLLAEGRLLNLSCSTVPTFVLSITATTQALALIELYNAPEGRYKQDVYLLPKKMDEYVASLHLPSFDAHLTELTDDQAKYLGLNKNGPFKPNYYRY
B2: gasdermin-A (human); sequence looked up; chain MTMFENVTRALARQLNPRGDLTPLDSLIDFKRFHPFCLVLRKRKSTLFWGARYVRTDYTLLDVLEPGSSPSDPTDTGNFGFKNMLDTRVEGDVDVPKTVKVKGTAGLSQNSTLEVQTLSVAPKALETVQERKLAADHPFLKEMQDQGENLYVVMEVVETVQEVTLERAGKAEACFSLPFFAPLGLQGSINHKEAVTIPKGCVLAFRVRQLMVKGKDEWDIPHICNDNMQTFPPGEKSGEEKVILIQASDVGDVHEGFRTLKEEVQRETQQVEKLSRVGQSSLLSSLSKLLGKKKELQDLELALEGALDKGHEVTLEALPKDVLLSKEAVGAILYFVGALTELSEAQQKLLVKSMEKKILPVQLKLVESTMEQNFLLDKEGVFPLQPELLSSLGDEELTLTEALVGLSGLEVQRSGPQYMWDPDTLPRLCALYAGLSLLQQLTKAS
B3: human FHL1; sequence looked up; chain AEKFDCHYCRDPLQGKKYVQKDGHHCCLKCFDKFCANTCVECRKPIGADSKEVHYKNRFWHDTCFRCAKCLHPLANETFVAKDNKILCNKCTTREDSPKCKGCFKAIVAGDQNVEYKGTVWHKDCFTCSNCKQVIGTGSFFPKGEDFYCVTCHETKFAKHCVKCNKAITSGGITYQDQPWHADCFVCVTCSKKLAGQRFTAVEDQYYCVDCYKNFVAKKCAGCKNPITGKRTVSRVSHPVSKARKPPVCHGKRLPLTLFPSANLRGRHPGGERTCPSWVVVLYRKNRSLAAPRGPGLVKAPVWWPMKDNPGTTTASTAKNAP
UniProt P29055, sequence (whole entry, looked up): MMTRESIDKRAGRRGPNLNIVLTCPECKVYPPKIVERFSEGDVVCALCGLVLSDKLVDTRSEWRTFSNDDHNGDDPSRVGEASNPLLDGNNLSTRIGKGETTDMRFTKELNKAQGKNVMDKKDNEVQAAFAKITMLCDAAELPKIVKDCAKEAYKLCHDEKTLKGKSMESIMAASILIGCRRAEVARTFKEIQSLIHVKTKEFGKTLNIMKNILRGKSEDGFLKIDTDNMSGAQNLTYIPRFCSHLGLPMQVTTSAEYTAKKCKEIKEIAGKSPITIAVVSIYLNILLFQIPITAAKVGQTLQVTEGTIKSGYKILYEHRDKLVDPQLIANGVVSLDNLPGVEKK
UniProt P13393, sequence (whole entry, looked up): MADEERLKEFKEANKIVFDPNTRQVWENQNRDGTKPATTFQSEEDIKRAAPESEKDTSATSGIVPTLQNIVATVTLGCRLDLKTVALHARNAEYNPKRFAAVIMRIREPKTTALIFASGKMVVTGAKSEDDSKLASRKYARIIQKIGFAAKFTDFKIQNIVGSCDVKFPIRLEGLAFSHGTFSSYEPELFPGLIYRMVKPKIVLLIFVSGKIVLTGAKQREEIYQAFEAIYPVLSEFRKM
UniProt Q00535, sequence (whole entry, looked up): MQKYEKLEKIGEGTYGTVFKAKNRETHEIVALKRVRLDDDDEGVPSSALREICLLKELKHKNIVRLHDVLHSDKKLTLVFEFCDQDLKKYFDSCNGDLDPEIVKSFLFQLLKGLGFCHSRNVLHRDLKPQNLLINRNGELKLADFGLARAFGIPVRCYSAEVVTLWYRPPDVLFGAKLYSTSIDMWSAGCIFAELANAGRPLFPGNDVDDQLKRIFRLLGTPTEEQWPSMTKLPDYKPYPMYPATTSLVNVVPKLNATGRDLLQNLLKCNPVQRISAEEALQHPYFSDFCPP

The activity change of `KEAFWDRCLSVINLMSSKMLQANA` is reported as 47% (Cyclin-dependent kinase 5, with p25 (CDK5, Homo sapiens, UniProt Q00535); phosphotransferase activity, radiometric; peptide; concentration not given, 10% DMSO, together with: histone substrate; baseline: p5-WT peptide).
`GSGAGKETRV` — result for “normalised SPR binding response”: 24.3 normalised RU (construct, MBP fusion, human SCRIB, PDZ 3-4; surface plasmon resonance; peptide; concentration not given; higher = stronger binding).
Under binding, `SYGRPRVAAAP (phosphorylated)` is recorded as “inhibited” (VSR1 N-terminal domain (Arabidopsis thaliana); pull-down; peptide; concentration not given, pH 7.1).
For `ATP synthase subunit beta, human`, “log2 fold change” read -0.09 (PP6C (human); co-immunoprecipitation, IP-MS; CYB5R4 knockout cells; concentration not given; baseline: CYB5R4 knockout over parental).
`QSARYRDTEL` — result for “normalised SPR binding response”: 38.5 normalised RU (construct, MBP fusion, human SCRIB, PDZ 3-4; surface plasmon resonance; peptide; concentration not given; higher = stronger binding).
`Nonidet P-40`: “average chemical shift perturbation” 0.021 ppm (HBV core protein Cp149 dimer; solution NMR; 4 molar equivalents, pH 7.5, 295 K, average over eight residues; baseline: apo Cp149 dimer).
For `CUUCUCUCU (ssRNA)`, the Kd was 300 nM (U2AF2; sequencing of bound RNA; RNA; motif only).
`GSGAGKETSF` — result for “normalised SPR binding response”: 44.1 normalised RU (construct, MBP fusion, human SCRIB, PDZ 3-4; surface plasmon resonance; peptide; concentration not given; higher = stronger binding).
`maraviroc` — result for “total Tau level”: “no effect” (Tau; mice, NSG hu-PBL, HIV-infected, brain SSC and FC regions; ip, 120 mg/kg twice daily, 3 weeks post-infection, normalized to β-actin; baseline: untreated HIV-infected mice).
Under “log2 fold change”, `B1 (human AHCYL1)` is recorded as -0.71 (PP6C (human); co-immunoprecipitation, IP-MS; CYB5R4 knockout cells; concentration not given; baseline: CYB5R4 knockout over parental).
The Kd of `GAATTCCTATATATTAATGTGGAGCTCCGTTCGTCTCAAGTCAATCGGTCC (dsDNA; 5'-amino-C6 primer)` is reported as 13.4 ± 0.73 nM (SPT15 full length assumed (Saccharomyces cerevisiae, UniProt P13393); array; double-stranded DNA, one strand shown; TBP alone).
For `human GAPDH`, “log2 fold change” read 0.58 (PP6C (human); co-immunoprecipitation, IP-MS; CYB5R4 knockout cells; concentration not given; baseline: CYB5R4 knockout over parental).
With `GSGAGQITKV` the binding intensity was -0.142 (construct, MBP fusion, human SCRIB, PDZ 3-4; automated holdup; peptide, purified PDZ protein; concentration not given, unit not given; baseline: biotin control resin, higher = stronger binding).
`human Hsp90-beta` — result for “log2 fold change”: 0.0012 (PP6C (human); co-immunoprecipitation, IP-MS; CYB5R4 knockout cells; concentration not given; baseline: CYB5R4 knockout over parental).
With `UGCUUGCUC (ssRNA)` the Kd was 7400 nM (U2AF2; sequencing of bound RNA; RNA; motif only).
`B2 (gasdermin-A)`: “log2 fold change” -0.15 (PP6C (human); co-immunoprecipitation, IP-MS; CYB5R4 knockout cells; concentration not given; baseline: CYB5R4 knockout over parental).
`VVVGAAGVGK` has a remaining protein of 0.863 and 0.854 and 0.853 (HLA-A*11:01 peptide-β2M single-chain trimer; western blot, refers to: pMHC-I; peptide, 293T cells; 6 h, unit not given, together with: 100 µg/mL cycloheximide; baseline: time zero).
Under “normalised SPR binding response”, `GSGAGKESYV` is recorded as 18.4 normalised RU (construct, MBP fusion, human SCRIB, PDZ 3-4; surface plasmon resonance; peptide; concentration not given; higher = stronger binding).
`MAPVLYLQDKSSN` gave a bound fraction of 97.6% (DnaK (Escherichia coli); fluorescence polarization; peptide; 25 µM, 30 °C, together with: ATP).
`GAAAAACATCTAACATAAATATATAAACGCAAACATCAAGTCAATCGGTCC (dsDNA; 5'-amino-C6 primer)` gave a Kd of 0.8 ± 0.45 nM (SUA7 full length assumed (Saccharomyces cerevisiae, UniProt P29055); array; double-stranded DNA, one strand shown; TFIIB alone).
With `VVVGAVGVGK` the remaining protein was 0.936 and 0.89 and 0.934 (HLA-A*11:01 peptide-β2M single-chain trimer; western blot, refers to: pMHC-I; peptide, 293T cells; 6 h, unit not given, together with: 100 µg/mL cycloheximide; baseline: time zero).
`B3 (human FHL1)` — result for “log2 fold change”: -2.14 (PP6C (human); co-immunoprecipitation, IP-MS; CYB5R4 knockout cells; concentration not given; baseline: CYB5R4 knockout over parental).
Under “mean rupture force”, `GEMVGQARILAQATSDLVNAIKDA` is recorded as 55.1 pN (vinculin head domain Vd1; complex rupture, AFM single-molecule force spectroscopy; peptide; traces traces, C-terminal pulling, 800 nm/s).

Excerpt of the above:
Under binding, `SYGRPRVAAAP (phosphorylated)` is recorded as “inhibited” (VSR1 N-terminal domain (Arabidopsis thaliana); pull-down; peptide; concentration not given, pH 7.1).
For `ATP synthase subunit beta, human`, “log2 fold change” read -0.09 (PP6C (human); co-immunoprecipitation, IP-MS; CYB5R4 knockout cells; concentration not given; baseline: CYB5R4 knockout over parental).
`QSARYRDTEL` — result for “normalised SPR binding response”: 38.5 normalised RU (construct, MBP fusion, human SCRIB, PDZ 3-4; surface plasmon resonance; peptide; concentration not given; higher = stronger binding).
